Results pooled from the literature.
Each numbered part is a random draw from the data of one study; scales do not carry over between parts.
Chain of UniProt Q96SB4 (whole entry, looked up): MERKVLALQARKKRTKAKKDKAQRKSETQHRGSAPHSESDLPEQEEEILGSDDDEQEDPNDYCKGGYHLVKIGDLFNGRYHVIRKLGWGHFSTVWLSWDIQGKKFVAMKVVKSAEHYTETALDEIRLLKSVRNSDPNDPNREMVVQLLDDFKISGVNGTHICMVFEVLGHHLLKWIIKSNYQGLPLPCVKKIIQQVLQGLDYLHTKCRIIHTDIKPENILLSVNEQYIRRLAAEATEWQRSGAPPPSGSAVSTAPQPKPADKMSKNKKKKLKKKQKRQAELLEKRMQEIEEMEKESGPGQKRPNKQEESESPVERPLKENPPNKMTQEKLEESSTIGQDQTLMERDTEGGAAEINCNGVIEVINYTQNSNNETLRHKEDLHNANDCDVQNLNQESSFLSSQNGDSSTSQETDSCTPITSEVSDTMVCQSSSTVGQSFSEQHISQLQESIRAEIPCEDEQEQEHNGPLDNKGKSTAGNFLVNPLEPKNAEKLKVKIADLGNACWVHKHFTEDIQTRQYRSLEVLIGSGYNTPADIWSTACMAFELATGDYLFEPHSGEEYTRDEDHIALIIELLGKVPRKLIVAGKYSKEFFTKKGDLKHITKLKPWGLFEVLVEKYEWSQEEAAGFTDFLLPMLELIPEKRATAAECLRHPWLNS
Chain of UniProt O75460 (whole entry, looked up): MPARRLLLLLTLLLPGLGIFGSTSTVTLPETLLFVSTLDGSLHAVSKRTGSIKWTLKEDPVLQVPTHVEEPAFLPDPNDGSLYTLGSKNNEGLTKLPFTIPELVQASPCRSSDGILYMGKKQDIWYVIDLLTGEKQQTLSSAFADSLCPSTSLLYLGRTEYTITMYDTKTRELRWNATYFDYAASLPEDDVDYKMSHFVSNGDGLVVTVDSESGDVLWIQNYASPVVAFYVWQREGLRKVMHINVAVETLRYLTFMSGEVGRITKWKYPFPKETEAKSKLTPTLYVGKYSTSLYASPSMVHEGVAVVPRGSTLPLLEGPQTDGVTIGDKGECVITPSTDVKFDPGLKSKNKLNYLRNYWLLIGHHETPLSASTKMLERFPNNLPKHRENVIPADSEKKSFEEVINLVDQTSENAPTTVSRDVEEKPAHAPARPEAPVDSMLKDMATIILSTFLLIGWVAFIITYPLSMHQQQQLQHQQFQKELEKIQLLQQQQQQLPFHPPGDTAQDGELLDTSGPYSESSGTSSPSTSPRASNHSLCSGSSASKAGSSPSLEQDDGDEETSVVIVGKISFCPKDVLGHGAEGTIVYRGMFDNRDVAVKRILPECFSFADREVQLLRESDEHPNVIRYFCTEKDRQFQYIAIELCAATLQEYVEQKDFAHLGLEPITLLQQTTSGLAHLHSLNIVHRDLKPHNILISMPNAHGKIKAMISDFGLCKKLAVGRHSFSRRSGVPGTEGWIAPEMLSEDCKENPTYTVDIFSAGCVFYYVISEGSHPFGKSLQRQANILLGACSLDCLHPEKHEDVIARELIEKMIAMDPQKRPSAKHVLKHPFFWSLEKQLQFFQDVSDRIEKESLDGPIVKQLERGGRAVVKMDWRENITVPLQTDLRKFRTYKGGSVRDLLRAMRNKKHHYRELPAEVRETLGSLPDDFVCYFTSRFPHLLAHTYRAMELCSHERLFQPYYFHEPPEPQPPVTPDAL
Chain of UniProt Q5S007 (whole entry, unmodified, looked up): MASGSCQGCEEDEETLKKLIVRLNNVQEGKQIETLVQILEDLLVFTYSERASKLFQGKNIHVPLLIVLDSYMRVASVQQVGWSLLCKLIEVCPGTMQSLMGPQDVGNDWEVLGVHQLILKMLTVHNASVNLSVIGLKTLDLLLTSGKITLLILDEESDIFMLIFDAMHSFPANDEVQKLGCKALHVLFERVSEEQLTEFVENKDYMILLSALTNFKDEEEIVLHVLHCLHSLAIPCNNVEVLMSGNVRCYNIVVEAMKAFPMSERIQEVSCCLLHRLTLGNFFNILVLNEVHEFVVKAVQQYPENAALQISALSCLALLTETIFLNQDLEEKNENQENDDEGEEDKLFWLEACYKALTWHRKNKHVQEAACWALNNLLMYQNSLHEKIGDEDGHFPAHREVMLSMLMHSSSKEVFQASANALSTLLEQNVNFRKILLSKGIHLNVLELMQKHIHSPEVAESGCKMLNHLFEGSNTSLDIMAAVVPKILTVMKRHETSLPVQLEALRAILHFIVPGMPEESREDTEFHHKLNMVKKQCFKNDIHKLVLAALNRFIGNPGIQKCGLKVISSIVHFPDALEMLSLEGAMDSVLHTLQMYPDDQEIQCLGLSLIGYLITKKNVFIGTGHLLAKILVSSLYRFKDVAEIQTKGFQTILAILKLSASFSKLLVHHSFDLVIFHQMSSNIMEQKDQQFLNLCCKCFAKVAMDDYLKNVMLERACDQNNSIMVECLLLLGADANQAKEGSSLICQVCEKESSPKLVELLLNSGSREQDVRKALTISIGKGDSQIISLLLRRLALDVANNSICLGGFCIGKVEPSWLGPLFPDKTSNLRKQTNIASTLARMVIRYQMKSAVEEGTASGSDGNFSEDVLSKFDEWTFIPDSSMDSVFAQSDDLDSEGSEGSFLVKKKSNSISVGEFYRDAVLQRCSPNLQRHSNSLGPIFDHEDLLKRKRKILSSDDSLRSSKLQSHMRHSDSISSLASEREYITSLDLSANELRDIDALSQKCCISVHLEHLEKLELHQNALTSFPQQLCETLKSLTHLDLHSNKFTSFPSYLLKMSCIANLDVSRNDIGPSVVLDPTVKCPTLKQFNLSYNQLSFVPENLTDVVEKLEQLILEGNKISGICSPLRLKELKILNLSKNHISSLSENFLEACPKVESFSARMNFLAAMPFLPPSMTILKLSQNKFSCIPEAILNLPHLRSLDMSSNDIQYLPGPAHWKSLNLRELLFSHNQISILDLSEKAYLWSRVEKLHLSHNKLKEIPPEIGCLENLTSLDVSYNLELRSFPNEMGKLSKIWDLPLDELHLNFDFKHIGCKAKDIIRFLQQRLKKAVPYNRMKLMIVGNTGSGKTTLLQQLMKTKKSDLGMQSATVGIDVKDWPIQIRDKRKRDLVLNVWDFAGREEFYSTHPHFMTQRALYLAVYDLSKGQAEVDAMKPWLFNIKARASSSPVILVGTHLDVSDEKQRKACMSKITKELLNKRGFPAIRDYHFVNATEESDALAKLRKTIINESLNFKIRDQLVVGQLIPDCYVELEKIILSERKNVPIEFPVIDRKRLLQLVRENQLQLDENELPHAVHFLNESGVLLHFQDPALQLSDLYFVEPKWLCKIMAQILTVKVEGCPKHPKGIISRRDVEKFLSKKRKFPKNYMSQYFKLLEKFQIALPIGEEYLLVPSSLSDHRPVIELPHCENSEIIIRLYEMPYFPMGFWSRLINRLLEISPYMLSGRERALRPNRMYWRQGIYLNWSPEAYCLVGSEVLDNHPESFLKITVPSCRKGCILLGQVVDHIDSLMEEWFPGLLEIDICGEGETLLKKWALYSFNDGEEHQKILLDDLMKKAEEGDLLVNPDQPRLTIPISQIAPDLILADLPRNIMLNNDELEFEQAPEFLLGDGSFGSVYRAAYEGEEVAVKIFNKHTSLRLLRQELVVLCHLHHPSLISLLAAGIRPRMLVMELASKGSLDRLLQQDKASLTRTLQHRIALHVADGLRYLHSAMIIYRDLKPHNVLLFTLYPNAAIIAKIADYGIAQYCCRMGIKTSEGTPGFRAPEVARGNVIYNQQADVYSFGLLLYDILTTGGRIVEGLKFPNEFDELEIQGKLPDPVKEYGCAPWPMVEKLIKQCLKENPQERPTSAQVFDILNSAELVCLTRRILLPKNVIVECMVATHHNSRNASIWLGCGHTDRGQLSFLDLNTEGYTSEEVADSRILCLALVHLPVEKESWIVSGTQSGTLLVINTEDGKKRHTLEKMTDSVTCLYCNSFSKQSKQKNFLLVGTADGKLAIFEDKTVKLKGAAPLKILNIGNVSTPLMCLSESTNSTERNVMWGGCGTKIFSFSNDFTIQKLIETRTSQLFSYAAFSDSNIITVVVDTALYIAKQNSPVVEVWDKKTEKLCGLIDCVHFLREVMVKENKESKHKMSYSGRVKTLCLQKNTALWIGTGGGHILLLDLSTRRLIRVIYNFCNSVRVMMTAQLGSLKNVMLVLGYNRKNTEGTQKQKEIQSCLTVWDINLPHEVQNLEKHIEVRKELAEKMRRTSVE
Chain of UniProt P51817 (whole entry, looked up): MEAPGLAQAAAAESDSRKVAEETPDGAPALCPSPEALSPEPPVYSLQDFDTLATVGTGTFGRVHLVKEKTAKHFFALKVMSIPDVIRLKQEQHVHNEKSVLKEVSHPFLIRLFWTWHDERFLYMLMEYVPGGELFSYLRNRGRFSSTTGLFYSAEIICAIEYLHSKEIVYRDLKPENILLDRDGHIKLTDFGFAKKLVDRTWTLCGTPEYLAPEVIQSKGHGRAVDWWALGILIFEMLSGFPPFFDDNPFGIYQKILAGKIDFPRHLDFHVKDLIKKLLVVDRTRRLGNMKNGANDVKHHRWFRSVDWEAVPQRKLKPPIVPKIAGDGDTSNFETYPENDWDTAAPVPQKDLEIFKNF

Block 1
Target: Serine/threonine-protein kinase 24 (STK24, Homo sapiens, UniProt Q9Y6E0)
Chain of UniProt Q9Y6E0 (whole entry, looked up): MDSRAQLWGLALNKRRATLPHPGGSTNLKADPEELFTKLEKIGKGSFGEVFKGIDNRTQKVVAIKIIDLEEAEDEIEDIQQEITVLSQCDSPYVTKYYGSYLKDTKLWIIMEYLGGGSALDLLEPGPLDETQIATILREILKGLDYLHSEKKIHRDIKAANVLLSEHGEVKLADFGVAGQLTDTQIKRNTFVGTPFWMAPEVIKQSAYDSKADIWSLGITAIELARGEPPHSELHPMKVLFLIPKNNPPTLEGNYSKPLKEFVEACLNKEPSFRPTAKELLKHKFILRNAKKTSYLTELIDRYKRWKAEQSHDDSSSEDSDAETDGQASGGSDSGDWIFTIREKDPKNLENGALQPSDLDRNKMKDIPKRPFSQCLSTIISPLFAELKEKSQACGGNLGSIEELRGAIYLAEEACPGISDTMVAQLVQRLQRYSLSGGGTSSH
Observed: enzyme activity
Mode: inhibitor
Tested at: 0.5 µM
Baseline: control
| SMILES | remaining activity [%] |
| --- | --- |
| O=C1NC(=O)C(c2cn(CCCn3ccnc3)c3ccccc23)=C1Nc1ccccc1 | 51.7 |
| O=C(O)c1ccc2c3c1cccc3c(=O)n1c3ccccc3nc21 | 87.6 |
| COc1ccc(CNC(=O)Nc2ncc([N+](=O)[O-])s2)cc1 | 93.6 |
| C#Cc1cccc(Nc2ncnc3cc(OCCOC)c(OCCOC)cc23)c1 | 115 |
| O=C(Nc1cccc(Nc2cc(Nc3cccc(C(F)(F)F)c3)ncn2)c1)C1CC1 | 97.1 |
| Nc1ccc2ncnc(NCCc3ccc(Oc4ccccc4)cc3)c2c1 | 107 |
| COc1cc2ncnc(Nc3ccc(Oc4ccccc4)cc3)c2cc1OC | 91.6 |
| Cc1cccc(-c2[nH]c(C(C)(C)C)nc2-c2ccc3c(c2)OCO3)n1 | 100 |
| COc1ccc(C(=O)Nc2sc3c(c2C(N)=O)CCCC3)cc1OC | 93.9 |
| CNC(=O)c1cc(Oc2ccc(NC(=O)Nc3ccc(Cl)c(C(F)(F)F)c3)cc2)ccn1 | 110 |
| O=c1c2ccccc2[nH]c(=S)n1CCN1CCC(=C(c2ccc(F)cc2)c2ccc(F)cc2)CC1 | 93.4 |
| Cc1ccc(Nc2nccc(N(C)c3ccc4c(C)n(C)nc4c3)n2)cc1S(N)(=O)=O | 106 |
| COc1ccc(OC)c2c(=S)c3ccccc3[nH]c12 | 78.9 |
| CC(C)[C@H](CO)Nc1nc(Nc2cc(N)cc(Cl)c2)c2ncn(C(C)C)c2n1 | 75.9 |
| N#CC(C#N)=C(N)/C(C#N)=C/c1ccc(O)cc1 | 103 |

Block 2
SMILES: C[C@H]1CC[C@H](n2c3cnccc3c3cnc(Nc4ccc5c(n4)CCN(C(=O)CO)C5)nc32)CC1
Observed: cell-free assay
Tested at: 1 µM
| target | remaining signal [%] |
| --- | --- |
| Serine/threonine-protein kinase 17A (STK17A, Homo sapiens, UniProt Q9UEE5) | 100 |
| Serine/threonine-protein kinase DCLK2 (DCLK2, Homo sapiens, UniProt Q8N568) | 100 |
| Serine/threonine-protein kinase PLK2 (PLK2, Homo sapiens, UniProt Q9NYY3) | 100 |
| Leucine-rich repeat serine/threonine-protein kinase 2 (LRRK2, Homo sapiens, UniProt Q5S007, G2019S) | 32 |
| Serine/threonine-protein kinase PLK1 (PLK1, Homo sapiens, UniProt P53350) | 100 |
| cAMP-dependent protein kinase catalytic subunit PRKX (PRKX, Homo sapiens, UniProt P51817) | 65 |
| Serine/threonine-protein kinase RIO3 (RIOK3, Homo sapiens, UniProt O14730) | 36 |
| Mast/stem cell growth factor receptor Kit (KIT, Homo sapiens, UniProt P10721, L576P) | 1.2 |

Block 3
Structure (SMILES): FC(F)(F)c1ccc2c(c1)nc(-c1cccnc1)n2C1CC1
Observed: cell-free assay
Technique: competition with immobilised ligand
Tested at: 1 µM
| target | remaining binding |
| --- | --- |
| Cyclin-dependent kinase 13 (CDK13, Homo sapiens, UniProt Q14004) | 100% |
| Activin receptor type-1B (ACVR1B, Homo sapiens, UniProt P36896) | 98% |
| Mitogen-activated protein kinase kinase kinase 15 (MAP3K15, Homo sapiens, UniProt Q6ZN16) | 100% |
| Dual specificity tyrosine-phosphorylation-regulated kinase 1B (DYRK1B, Homo sapiens, UniProt Q9Y463) | 53% |
| SRSF protein kinase 1 (SRPK1, Homo sapiens, UniProt Q96SB4) | 80% |
| Serine/threonine-protein kinase/endoribonuclease IRE1 (ERN1, Homo sapiens, UniProt O75460) | 100% |

Block 4
Cell line: A-375
Tested at: 100 µM
Time: 18 h
| Structure (SMILES) | viability |
| --- | --- |
| OCCN1CCN(CCCN2c3ccccc3Sc3ccc(Cl)cc32)CC1 | 9.83% |
| COc1cc2c(Nc3ccc(Br)cc3F)ncnc2cc1OCC1CCN(C)CC1 | 8.45% |
| CCCC(=O)O[C@]1(C(=O)CO)CC[C@H]2[C@@H]3CCC4=CC(=O)CC[C@]4(C)[C@H]3[C@@H](O)C[C@@]21C | 76.7% |
| C[C@]12CC[C@@H]3c4ccc(O)cc4C[C@@H](CCCCCCCCC[S+]([O-])CCCC(F)(F)C(F)(F)F)[C@H]3[C@@H]1CC[C@@H]2O (some centres unmarked) | 96.7% |
| Nc1c2ccccc2nc2ccccc12 | 20.8% |
| CCN(CCCCOC(=O)c1ccc(OC)c(OC)c1)C(C)Cc1ccc(OC)cc1 (centres unmarked) | 42.7% |
